Measurements of several laboratories.
Every numbered part comes from another study and shows a few of its results, in no order.

Series 1
Target: RING finger protein unkempt homolog, zinc fingers 1-6, GST-SBP tag (UNK, Homo sapiens, UniProt Q9C0B0, residues 30-357)
Sequence of UniProt Q9C0B0 (30-357, looked up): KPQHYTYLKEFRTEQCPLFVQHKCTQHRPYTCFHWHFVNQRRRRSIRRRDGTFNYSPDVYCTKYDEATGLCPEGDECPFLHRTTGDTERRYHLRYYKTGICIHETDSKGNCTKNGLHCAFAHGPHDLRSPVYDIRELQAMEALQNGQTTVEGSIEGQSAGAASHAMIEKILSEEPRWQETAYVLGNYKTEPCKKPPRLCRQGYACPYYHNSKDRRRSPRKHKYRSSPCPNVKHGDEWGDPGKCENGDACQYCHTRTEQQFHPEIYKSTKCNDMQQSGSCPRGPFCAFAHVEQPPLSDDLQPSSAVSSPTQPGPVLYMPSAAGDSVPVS
Technique: RNA Bind-n-Seq
Molecule type: RNA
Medium: in vitro
Tested at: not given
Notes: RNA with constant flanks, human and mouse sites, ends assumed
Baseline: input RNA pool
Reading: higher = stronger binding
Shared flanks, not repeated: GGGAGUUCUACAGUCCGACGAUC … CAACAGAGGAUUGAGCAUCA
Strand	bound/input enrichment [ratio]
GUCUGCAUUUAUCUUUCUUCCAAGUUUUUCUAAUUCUAAUGCUAUUUGUUAUAAUUUAGGUUUGGGAUAAAAAUAUGCUUUUGGAAGAUUUAAAAAGAAAAUUAAAACAGCUCUUCCUGA	1.14
AAGGAUUGUAAAUCCUACAGUGUGGGAGUAGCAUACAAAACGUUGGGGAAAUUUGACCAAUUGGGAAAGACAAACACUAGUUGGUGUAUCCAUGUCAACAACUGGCUACAAAACACAUUU	0.12
UCGCCUGUUCAGGACAUCGACACUCCAGAGGUUGAUUUGUACCAAUUACAAGUAAAUACACUUAGAAGAUACAAAAGACACUUCAAGCUUCCAACCAGACCAGGUCUAAAUAAAGCACAA	0.144
ACGAUCAUUUGUGGGCAUCCCCUGUUGUCCAGGAGAACCCCGCUUCGGCCUCCCCAACCCAUUUCACUUCCCUCCACGAUCCCGCUCUCGCGGAGGCGAGGAGAUUCCCAGACAGAAGCC	0.152
CCUCUGCUGCGAGAAGUUCUGGAGAAGCAGCCAGUGCUAAGCCAGACCGAGGCCCGCGACUUAGUAGAACGCUGCAUGCGAGUGCUGUACUACCGAGAUGCCCGUUCUUACAACCGGUUU	0.0459
AGUGAAUGAGGUGGAGCUUCUGGUGAUGAAGGCCCUUUCGGUGGGGCUGGUGAAAGGCAGUAUAGACGAGGUGGACAAACGAGUCCACAUGACCUGGGUGCAGCCCCGAGUGUUGGAUUU	0.21
UAGAAGUCAACAUUUCUCCAAGCCUCCAUUCCAACUCUCCUCUGGACAUCAGCAUCAAAGGCCAGAUGAUCCGAGACCUUCUGAACCUGGCUGGCUUUGUUCUGCCCAACAUGGAGGAUA	0.197
CAUUUAUUCAUUCUGUUUCUAUAUAGCAAAACUGAAUGUCAAAAGUACCUUCUGUCCACACACACAAAAUCUGCAUGUAUUGGUUGGUGGUCCUGUCCCCUAAAGAUCAAGCUACACAUC	0.419

Series 2
Cell line: yeast with cyclin A1-Cln2 chimera
Observed: cell growth
Mode: binder
Technique: competitive growth deep sequencing
Molecule type: peptide
Tested at: concentration not given
Notes: peptide tiling library
Reading: direction not given
Sequence	growth enrichment score
SPPRGRRLFPPGPAGF	-0.602
RRRIKLPESDSSED	0.424
NSMKELNFSHLPSNSV	0.29
RVSGLLSWTLSRVLWL	0.722
PFSENVSAVQKLDFSD	0.696
KSKHEEEEWTDDDLVE	0.196
RQVRRDLFAF	0.0871
VKTKKRLNFDDK	0.233
TTTTSPRTPPPLTVQD	-0.072
GFGFLLFICKLTF	-1.25
NEGVSNAVRRSLYIRD	0.19

Series 3
Target: Sal-like protein 4, full length isoform B (SALL4, Homo sapiens, UniProt Q9UJQ4-2, residues 1-616)
Technique: universal PBM
Molecule type: double-stranded DNA, one strand shown
Medium: in vitro
Tested at: not given
Notes: 8-mer, flanks averaged, mean of replicates
Reading: higher = stronger binding
Strand	E-score
GGGGATTA	0.0261
AACATGCC	-0.0839
AAGAAAGA	0.107
GCAAATCA	0.109
TGATAAAA	0.291
AGGCTAAC	-0.0875
CTTGGGAC	-0.165
ACAAACAG	0.0641
AAAACGTC	0.139
CCGTGAAG	-0.0877
GCATAGCC	-0.0993
TCATGACA	0.0867
AGTAGTTA	0.158
AACAGACT	0.0881
AGTAATGC	0.121
GCTTACGA	0.0509
AGAAGGGA	-0.231
GAGAACTA	0.133
AGTCACTA	0.0602
AGAGGGAG	-0.168
AATCATCC	0.0052

Series 4
Target: Fragile X messenger ribonucleoprotein 1, C-terminal low-complexity region (Fmr1, Mus musculus, UniProt P35922)
Technique: RNA Bind-n-Seq
Molecule type: RNA
Medium: in vitro
Tested at: 200 nM
Notes: whole 134-nt RNA, ends assumed
Added: 150 mM LiCl
Baseline: input library
Reading: higher = stronger binding
All molecules: 7-deaza-guanosine replaces G
Shared flanks, not repeated: GGGAGUUCUACAGUCCGACGAUC … UGGAAUUCUCGGGUGUCAAGG
Strand	log2 enrichment
CUCAAGUCCUGUGCUACACAUCGUAUGUACCGAAUCGGAAAGGAAAGGAAAGGGAAAGUAUUAUGUUACGCCGUUCGGAUCUGCACUUCC	-0.0905
UGGCCCUGGUGGCAUGCGGGGAGGAAGAGGUGGCCGCAUGGAUCGUGGUGGUCCCGGUGGAAUGUUCAGAGGUGGCCGUGGUGGAGACAG	1.14
CCUCAAGUCCUGUGCUACACAUCGUAUGUACCGAAUCGGGCGGCGGGGCGGGAAAGUAUUAUGUUACGCCGUUCGGAUCUGCACUUCCAG	-0.0988
UGGGAGGUGGAUUUUGUUUAUUUUUUUAGCUCAUUUCCAGGGGUGGGAAUUUUUUUUUAAUAGGUGUCAUGAAUAAAGUUGUUUUUGAAA	0.25
CCUCAAGUCCUGUGCUACACAUCGUAUGUACCGAAUCGGGAAGGAAGGGAAGGAAAGUAUUAUGUUACGCCGUUCGGAUCUGCACUUCCA	-1.45
UGGCCCUGGUGGCAUGCGGGGAGGAAGAGGUGGCCUCAUGGAUCGUGGUGGUCCCGGUCGAAUGUUCAGAGGUGGCCGUGGUGGAGACAG	-0.699
AAGUCCUGUGCUACACAUCGUAUGUACCGAAUCGGGGUUUGGGGAAAGGGGUGGGGAAAGUAUUAUGUUACGCCGUUCGGAUCUGCACUU	-1.23
UCCUGUGCUACACAUCGUAUGUACCGAAUCGGGAAAAAGGGAAAAAGGGUUUUUUUGGGAAAGUAUUAUGUUACGCCGUUCGGAUCUGCA	-1.32

A few entries again (series 4):
Strand	log2 enrichment
CCUCAAGUCCUGUGCUACACAUCGUAUGUACCGAAUCGGGCGGCGGGGCGGGAAAGUAUUAUGUUACGCCGUUCGGAUCUGCACUUCCAG	-0.0988
UGGGAGGUGGAUUUUGUUUAUUUUUUUAGCUCAUUUCCAGGGGUGGGAAUUUUUUUUUAAUAGGUGUCAUGAAUAAAGUUGUUUUUGAAA	0.25
CCUCAAGUCCUGUGCUACACAUCGUAUGUACCGAAUCGGGAAGGAAGGGAAGGAAAGUAUUAUGUUACGCCGUUCGGAUCUGCACUUCCA	-1.45
UGGCCCUGGUGGCAUGCGGGGAGGAAGAGGUGGCCUCAUGGAUCGUGGUGGUCCCGGUCGAAUGUUCAGAGGUGGCCGUGGUGGAGACAG	-0.699
AAGUCCUGUGCUACACAUCGUAUGUACCGAAUCGGGGUUUGGGGAAAGGGGUGGGGAAAGUAUUAUGUUACGCCGUUCGGAUCUGCACUU	-1.23
UCCUGUGCUACACAUCGUAUGUACCGAAUCGGGAAAAAGGGAAAAAGGGUUUUUUUGGGAAAGUAUUAUGUUACGCCGUUCGGAUCUGCA	-1.32
